Measured values gathered from unrelated publications.
Protocols differ between the studies behind these lines. ± marks the error that the study gave.
Chain of UniProt Q9HB29 (whole entry, looked up): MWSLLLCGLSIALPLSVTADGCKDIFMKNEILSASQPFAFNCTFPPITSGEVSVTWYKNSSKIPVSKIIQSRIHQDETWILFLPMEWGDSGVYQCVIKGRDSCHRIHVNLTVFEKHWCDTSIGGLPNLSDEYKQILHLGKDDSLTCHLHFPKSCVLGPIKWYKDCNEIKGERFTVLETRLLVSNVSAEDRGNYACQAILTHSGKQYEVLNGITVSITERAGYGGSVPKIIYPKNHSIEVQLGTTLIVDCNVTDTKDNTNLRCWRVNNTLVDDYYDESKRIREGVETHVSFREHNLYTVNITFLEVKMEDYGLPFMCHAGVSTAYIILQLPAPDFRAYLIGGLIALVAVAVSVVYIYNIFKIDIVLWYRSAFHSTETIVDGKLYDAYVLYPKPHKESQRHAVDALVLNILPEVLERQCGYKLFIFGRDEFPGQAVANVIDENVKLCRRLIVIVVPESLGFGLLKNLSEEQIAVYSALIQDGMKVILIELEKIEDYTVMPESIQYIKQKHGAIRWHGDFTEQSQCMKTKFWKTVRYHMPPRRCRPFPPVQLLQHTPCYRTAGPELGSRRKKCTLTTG
Chain of UniProt P27467 (whole entry, looked up): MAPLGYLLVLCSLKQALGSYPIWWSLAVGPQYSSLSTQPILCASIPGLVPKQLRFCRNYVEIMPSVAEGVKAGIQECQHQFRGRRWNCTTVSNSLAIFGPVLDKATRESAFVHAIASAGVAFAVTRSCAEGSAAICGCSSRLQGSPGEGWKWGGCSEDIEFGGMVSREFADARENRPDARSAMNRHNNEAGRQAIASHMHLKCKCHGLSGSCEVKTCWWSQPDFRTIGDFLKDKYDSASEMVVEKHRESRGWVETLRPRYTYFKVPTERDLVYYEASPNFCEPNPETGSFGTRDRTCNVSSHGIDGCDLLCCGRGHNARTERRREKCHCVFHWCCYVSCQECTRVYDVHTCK
Chain of UniProt Q62234 (whole entry, looked up): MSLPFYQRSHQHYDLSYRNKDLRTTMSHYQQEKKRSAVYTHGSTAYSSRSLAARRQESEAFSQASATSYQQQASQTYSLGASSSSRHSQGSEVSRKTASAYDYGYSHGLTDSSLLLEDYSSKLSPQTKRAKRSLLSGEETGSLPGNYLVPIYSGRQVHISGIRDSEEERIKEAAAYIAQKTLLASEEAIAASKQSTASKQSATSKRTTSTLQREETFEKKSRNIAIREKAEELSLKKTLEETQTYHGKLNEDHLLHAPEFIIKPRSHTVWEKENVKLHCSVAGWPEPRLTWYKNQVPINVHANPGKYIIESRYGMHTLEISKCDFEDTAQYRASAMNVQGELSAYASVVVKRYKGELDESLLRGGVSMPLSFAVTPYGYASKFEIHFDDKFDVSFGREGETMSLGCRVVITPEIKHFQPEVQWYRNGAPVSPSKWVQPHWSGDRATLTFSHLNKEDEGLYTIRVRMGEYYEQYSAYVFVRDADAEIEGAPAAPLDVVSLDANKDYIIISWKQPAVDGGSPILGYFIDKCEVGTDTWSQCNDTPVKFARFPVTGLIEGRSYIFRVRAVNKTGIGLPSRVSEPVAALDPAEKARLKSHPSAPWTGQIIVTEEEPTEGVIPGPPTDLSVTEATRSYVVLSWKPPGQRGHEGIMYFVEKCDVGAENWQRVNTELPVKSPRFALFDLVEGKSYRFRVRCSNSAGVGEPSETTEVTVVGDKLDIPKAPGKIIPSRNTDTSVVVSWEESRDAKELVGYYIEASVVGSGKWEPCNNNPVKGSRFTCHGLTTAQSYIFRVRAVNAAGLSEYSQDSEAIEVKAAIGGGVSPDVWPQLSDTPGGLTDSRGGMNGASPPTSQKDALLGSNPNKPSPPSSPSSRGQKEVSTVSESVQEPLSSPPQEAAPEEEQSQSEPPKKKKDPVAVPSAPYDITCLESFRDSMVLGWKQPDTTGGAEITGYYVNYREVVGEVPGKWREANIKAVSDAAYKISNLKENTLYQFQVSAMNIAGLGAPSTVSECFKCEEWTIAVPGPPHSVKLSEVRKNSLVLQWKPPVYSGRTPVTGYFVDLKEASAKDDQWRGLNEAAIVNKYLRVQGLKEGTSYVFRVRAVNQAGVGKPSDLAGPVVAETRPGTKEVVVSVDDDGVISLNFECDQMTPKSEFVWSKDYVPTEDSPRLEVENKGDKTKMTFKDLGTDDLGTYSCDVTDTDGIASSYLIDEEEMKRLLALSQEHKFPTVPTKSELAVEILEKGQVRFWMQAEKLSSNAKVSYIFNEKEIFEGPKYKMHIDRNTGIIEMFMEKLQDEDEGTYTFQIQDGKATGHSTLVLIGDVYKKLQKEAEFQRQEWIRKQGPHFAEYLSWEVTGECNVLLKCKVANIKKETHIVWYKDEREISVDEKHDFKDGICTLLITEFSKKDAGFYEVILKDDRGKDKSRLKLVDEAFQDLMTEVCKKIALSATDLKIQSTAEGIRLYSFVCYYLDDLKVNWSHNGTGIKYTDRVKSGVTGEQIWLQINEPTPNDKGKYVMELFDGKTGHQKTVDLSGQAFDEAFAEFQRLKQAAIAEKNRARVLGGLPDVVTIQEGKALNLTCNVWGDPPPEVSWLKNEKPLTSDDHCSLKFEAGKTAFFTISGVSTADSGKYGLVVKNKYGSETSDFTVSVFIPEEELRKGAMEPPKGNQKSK
Chain of UniProt P38169 (1-394, unmodified, looked up): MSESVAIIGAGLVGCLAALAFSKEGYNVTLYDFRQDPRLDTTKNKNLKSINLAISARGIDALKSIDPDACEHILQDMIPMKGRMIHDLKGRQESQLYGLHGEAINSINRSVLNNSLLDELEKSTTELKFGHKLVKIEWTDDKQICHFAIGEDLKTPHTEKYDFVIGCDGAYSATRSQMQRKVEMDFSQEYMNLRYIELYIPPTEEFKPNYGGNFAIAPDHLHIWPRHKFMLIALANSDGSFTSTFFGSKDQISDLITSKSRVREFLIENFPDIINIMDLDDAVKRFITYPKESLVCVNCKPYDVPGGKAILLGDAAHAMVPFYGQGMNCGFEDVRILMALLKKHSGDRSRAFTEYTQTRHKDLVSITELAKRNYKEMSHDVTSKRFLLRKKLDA
Chain of UniProt P22607 (whole entry, looked up): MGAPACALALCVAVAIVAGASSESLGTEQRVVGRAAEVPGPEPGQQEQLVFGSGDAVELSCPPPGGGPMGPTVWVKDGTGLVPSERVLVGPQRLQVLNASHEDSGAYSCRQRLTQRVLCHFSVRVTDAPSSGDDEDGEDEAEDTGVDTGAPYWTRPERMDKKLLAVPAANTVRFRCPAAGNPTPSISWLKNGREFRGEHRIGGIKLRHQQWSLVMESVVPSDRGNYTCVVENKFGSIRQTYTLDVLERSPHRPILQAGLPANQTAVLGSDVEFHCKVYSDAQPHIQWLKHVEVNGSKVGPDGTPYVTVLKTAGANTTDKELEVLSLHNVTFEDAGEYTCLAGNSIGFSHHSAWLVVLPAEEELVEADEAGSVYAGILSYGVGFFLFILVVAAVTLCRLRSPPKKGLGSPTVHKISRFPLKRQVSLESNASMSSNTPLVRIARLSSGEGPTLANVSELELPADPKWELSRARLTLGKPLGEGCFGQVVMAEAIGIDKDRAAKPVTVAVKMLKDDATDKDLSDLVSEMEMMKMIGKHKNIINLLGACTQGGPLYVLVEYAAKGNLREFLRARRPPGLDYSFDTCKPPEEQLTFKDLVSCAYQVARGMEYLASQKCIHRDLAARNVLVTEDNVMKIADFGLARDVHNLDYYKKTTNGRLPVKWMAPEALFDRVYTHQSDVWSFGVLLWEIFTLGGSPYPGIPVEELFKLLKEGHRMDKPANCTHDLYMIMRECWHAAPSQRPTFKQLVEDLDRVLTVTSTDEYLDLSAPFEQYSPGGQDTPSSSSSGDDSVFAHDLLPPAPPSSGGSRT
Chain of UniProt P22629 (whole entry, looked up): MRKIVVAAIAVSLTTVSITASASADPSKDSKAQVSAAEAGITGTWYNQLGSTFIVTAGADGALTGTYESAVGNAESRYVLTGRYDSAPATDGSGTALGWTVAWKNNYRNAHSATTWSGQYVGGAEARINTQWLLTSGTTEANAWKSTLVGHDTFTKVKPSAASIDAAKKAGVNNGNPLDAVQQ
Chain of UniProt Q07820 (whole entry, unmodified, looked up): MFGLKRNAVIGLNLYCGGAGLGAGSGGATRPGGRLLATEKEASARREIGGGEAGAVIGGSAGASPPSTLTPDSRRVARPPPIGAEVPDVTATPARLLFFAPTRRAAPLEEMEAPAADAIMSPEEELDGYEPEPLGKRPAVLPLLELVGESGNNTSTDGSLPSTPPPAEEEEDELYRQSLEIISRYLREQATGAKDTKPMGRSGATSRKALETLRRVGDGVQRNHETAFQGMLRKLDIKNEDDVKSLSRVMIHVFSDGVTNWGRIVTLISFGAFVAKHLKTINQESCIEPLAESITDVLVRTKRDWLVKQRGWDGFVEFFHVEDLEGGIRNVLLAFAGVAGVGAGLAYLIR
Chain of UniProt A0A109QYD3 (whole entry, looked up): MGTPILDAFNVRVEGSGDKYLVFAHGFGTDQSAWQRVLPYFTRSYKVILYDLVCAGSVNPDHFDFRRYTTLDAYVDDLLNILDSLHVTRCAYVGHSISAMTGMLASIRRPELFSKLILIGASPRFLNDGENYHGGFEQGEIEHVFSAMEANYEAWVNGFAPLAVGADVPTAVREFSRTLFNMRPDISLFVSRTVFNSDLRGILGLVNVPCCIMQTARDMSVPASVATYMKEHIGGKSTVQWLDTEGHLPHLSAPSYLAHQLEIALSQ

| SMILES | target | assay | system | conditions | Kd [nM] |
| --- | --- | --- | --- | --- | --- |
| CC1=C(C)C(Oc2c(F)cc3c(C)cc(=O)oc3c2F)OC1=O (racemic) | RMS3 (Lathyrus oleraceus, UniProt A0A109QYD3) | binding, fluorescence | – | – | 58900 |
| CC[C@H](C)[C@H](NC(=O)[C@H](CS)NC(=O)[C@H](CCC(N)=O)NC(=O)[C@H](CC(C)C)NC(=O)[C@H](CCCCN)NC(=O)[C@H](CCCNC(=N)N)NC(=O)[C@H](C)NC(=O)[C@@H](NC(=O)[C@H](CCC(N)=O)NC(=O)[C@@H](NC(=O)[C@H](CCC(=O)O)NC(=O)[C@H](C)NC(=O)[C@H](CCC(N)=O)NC(=O)[C@@H](N)Cc1c[nH]cn1)C(C)C)[C@@H](C)CC)C(=O)N[C@@H](C)C(=O)N[C@@H](CC(=O)O)C(=O)N[C@@H](CCC(N)=O)C(=O)N[C@@H](Cc1ccccc1)C(=O)N[C@@H](Cc1c[nH]cn1)C(=O)N[C@@H](CCCNC(=N)N)C(=O)N[C@@H](CC(C)C)C(=O)N[C@@H](Cc1c[nH]cn1)C(=O)N[C@H](C(=O)N[C@@H](CCC(N)=O)C(=O)N[C@@H](CCC(N)=O)C(=O)O)C(C)C | MCL1 (Homo sapiens, UniProt Q07820, A227D) | fluorescence polarization | – | fluorescently labelled compound | 49 |
| CC[C@H](C)[C@H](NC(=O)[C@H](CC(N)=O)NC(=O)[C@@H](NC(=O)[C@H](Cc1ccccc1)NC(=O)[C@@H](NC(=O)[C@H](CO)NC(=O)[C@@H](NC(=O)[C@H](C)NC(=O)[C@H](CCC(=O)O)NC(=O)[C@H](CCCCN)NC(=O)[C@H](Cc1ccc(O)cc1)NC(=O)[C@H](CC(C)C)NC(=O)[C@@H]1CCCN1C(=O)[C@H](CC(N)=O)NC(=O)[C@H](CC(N)=O)NC(=O)[C@H](C)NC(=O)[C@@H](NC(=O)[C@H](CC(=O)O)NC(=O)[C@H](Cc1c[nH]c2ccccc12)NC(=O)[C@@H](N)CCCCN)[C@@H](C)O)[C@@H](C)O)[C@@H](C)O)[C@@H](C)O)C(=O)N[C@H](C(=O)N[C@@H](Cc1ccc(O)cc1)C(=O)N[C@@H](CCCNC(=N)N)C(=O)NCC(=O)N[C@H](C(=O)O)[C@@H](C)O)[C@@H](C)O | Myomesin-1, IgC2 domain 4 (Myom1, Mus musculus, UniProt Q62234) | binding, ITC | – | pH 6.8, 25 °C, 50 mM NaCl, added: Sk4 0.175 mM | 10700 ± 9900 |
| O=C(O)C1CC1C(=O)c1ccc(Cl)c(Cl)c1 (centres unmarked) | Kynurenine 3-monooxygenase, residues 1-394 (Saccharomyces cerevisiae, UniProt P38169) | binding, flavin fluorescence | – | wild type | 138 ± 8 |
| CC(C)C[C@H](NC(=O)[C@H](CCC(=O)O)NC(=O)[C@H](Cc1ccccc1)NC(=O)[C@H](C)NC(=O)[C@H](CC(=O)O)NC(=O)[C@@H]1CCCN1C(=O)[C@H](Cc1ccc(O)cc1)NC(=O)[C@H](CCCCN)NC(=O)[C@H](Cc1c[nH]c2ccccc12)NC(=O)[C@H](CO)NC(=O)CNC(=O)CNC(=O)[C@H](CC(=O)O)NC(=O)[C@@H](N)CCC(=O)O)C(=O)N[C@@H](CO)C(=O)NCC(=O)O | Moesin (Homo sapiens, UniProt P26038) | binding, ITC | – | – | ~260 |
| CC[C@H](C)[C@@H]1NC(=O)[C@H](CC(N)=O)NC(=O)[C@@H](Cc2ccc(O)cc2)NC(=O)CSC[C@@H](C(=O)NCC(N)=O)NC(=O)[C@H](CCCNC(=N)N)NC(=O)[C@H](Cc2ccc(O)cc2)NC(=O)[C@H](CC(C)C)NC(=O)[C@H]([C@@H](C)O)NC(=O)[C@H](CC(C)C)NC(=O)[C@H]([C@@H](C)O)NC(=O)[C@@H]2CCCN2C(=O)[C@H](CC(C)C)NC(=O)[C@H](CC(N)=O)NC(=O)[C@H](Cc2ccccc2)NC(=O)[C@H](C(C)C)NC(=O)[C@H](Cc2c[nH]c3ccccc23)NC1=O | Protein Wnt-3a, with afamin (Mus musculus, UniProt P27467) | binding, SPR single cycle kinetics | immobilised mWnt3a–human afamin complex | 25 °C | 490 |
| CC(=O)NC1C(OC2C(O)C(CO)OC(O)C2OC2OC(C)C(O)C(O)C2O)OC(CO)C(O)C1O (centres unmarked) | Intermedilysin (Streptococcus intermedius, UniProt Q9LCB8) | binding | – | – | 9900 |
| CC(C)[C@@H]1NC(=O)[C@H](Cc2ccccc2)NC(=O)CSC[C@@H](C(N)=O)NC(=O)[C@H](CCC(=O)O)NC(=O)[C@H](CO)NC(=O)[C@H](Cc2c[nH]c3cccc(Cl)c23)NC(=O)[C@H](C2CCCCC2)NC(=O)[C@H](C(C)C)NC(=O)[C@H](Cc2ccc(O)cc2)NC(=O)[C@H](CC(=O)O)NC(=O)[C@H](Cc2c[nH]c3ccccc23)NC(=O)[C@H](Cc2ccc(N)nc2)NC(=O)[C@H](Cc2c[nH]c3ccc(Cl)cc23)NC(=O)[C@H](CCC(=O)O)NC1=O | Interleukin-1 receptor-like 2, D1-D3 domains (IL1RL2, Homo sapiens, UniProt Q9HB29) | SPR | – | IL-36R D1-D3 extracellular domain | 0.66 |
| N=C(N)Nc1ccc(-c2nc3ccc(-c4ccc5nc(-c6ccc(NC(=N)N)cc6)[nH]c5c4)cc3[nH]2)cc1 | r(CAG)12 RNA | binding, microscale thermophoresis | – | – | > 5000 |
| CC[C@H](C)[C@H](NC(=O)[C@H](Cc1ccccc1)NC(=O)[C@H](C)NC(=O)[C@H](CCCNC(=N)N)NC(=O)CNC(=O)CNC(=O)CNC(=O)CNC(=O)[C@H](CCSC)NC(=O)[C@H](Cc1ccc(O)cc1)NC(=O)[C@@H]1CCCN1C(=O)[C@@H](NC(=O)[C@H](C)NC(=O)[C@H](CO)NC(=O)[C@H](CO)NC(=O)[C@H](CC(C)C)NC(=O)[C@H](Cc1c[nH]c2ccccc12)NC(=O)[C@H](Cc1ccc(O)cc1)NC(=O)[C@H](Cc1c[nH]cn1)NC(=O)[C@H](CS)NC(=O)[C@H](CO)NC(=O)[C@H](Cc1ccc(O)cc1)NC(=O)[C@@H](N)CO)C(C)C)C(=O)N[C@@H](C)C(=O)N[C@@H](CO)C(=O)N[C@@H](CCCNC(=N)N)C(=O)N[C@@H](CCCNC(=N)N)C(=O)N[C@H](C(=O)N[C@@H](CCCNC(=N)N)C(=O)N[C@@H](CCCNC(=N)N)C(=O)N1CCC[C@H]1C(=O)O)[C@@H](C)CC | Streptavidin (Streptomyces avidinii, UniProt P22629) | binding | – | – | 10 |
| CSCC[C@H](NC(C)=O)C(=O)N[C@@H](CC(=O)O)C(=O)N[C@@H](CO)C(=O)N[C@@H](CCCCN)C(=O)N[C@@H](Cc1ccc(O)cc1)C(=O)N[C@H](C(=O)N[C@H](C(=O)N[C@@H](CC(C)C)C(=O)N[C@@H](Cc1ccc(O)cc1)C(=O)N[C@@H](Cc1ccc(O)cc1)C(=O)N[C@@H](CCC(N)=O)C(=O)N[C@@H](CC(C)C)C(=O)N[C@@H](Cc1c[nH]c2ccccc12)C(=O)N[C@@H](Cc1c[nH]c2ccccc12)C(=O)N[C@@H](CCCCN)C(=O)NCC(=O)N[C@@H](CO)C(=O)NCC(=O)N[C@@H](CO)C(=O)NCC(=O)N[C@@H](CO)C(=O)N[C@@H](CC(=O)O)C(=O)N[C@@H](Cc1ccc(O)cc1)C(=O)N[C@@H](CCCCN)C(=O)N[C@@H](CC(=O)O)C(=O)N[C@@H](CC(=O)O)C(=O)N[C@@H](CC(=O)O)C(=O)N[C@@H](CC(=O)O)C(=O)N[C@@H](CCCCN)C(=O)N[C@@H](CCCCN=[N+]=[N-])C(N)=O)[C@@H](C)O)C(C)C | FGFR3 (Homo sapiens, UniProt P22607) | binding, BLI | – | – | 39.4 |
